Experimental data of several laboratories.
Each line is one published result; not all experiments were run side by side. Numbers after ± are the reported error.

Cc1cc([C@H]2C[C@H]3[C@@H](C)SC(N)=N[C@@]3(c3ccc(F)cc3F)CO2)on1 — brain Aβ40 level (item: Aβx-40; wild-type mouse, brain; subcutaneous, 50 mg/kg, 5 h): 1.01 ng/g
C/C(=N\c1nc(N)nc(/N=C(\C)c2c(O)c3ccccc3oc2=O)n1)c1c(O)c2ccccc2oc1=O — DPPH radical scavenging (1 mg/mL, 60 min): 94.1%
CCCCC1(CCCC)CN(c2ccccc2)c2cc(SC)c(OCC(=O)N[C@@H](C(=O)NCC(=O)O)c3ccccc3)cc2S(=O)(=O)C1 — plasma C4 (item: 7α-hydroxy-4-cholesten-3-one; human, plasma; 20 mg once daily, day 5): 55.5 ng/mL
N#Cc1ccc2c(-c3ccncc3)c(-c3ccc(F)cc3)nn2c1 — log2 fold change (kinase binding, competitor, MIB/MS competition, item: RTK1; Candida albicans cell lysate; 10 µM; reference: DMSO): -0.0931
COc1ccc(-c2cncc(N[C@@H](C)c3cccc(NC(=O)c4cncc(C)c4)c3)n2)cc1OC — delta delta Ct (item: rno-miR-154-5p; rat SU5416/hypoxia model, lung; dose not given, unit not given; reference: SU5416/hypoxia vehicle): -1.57
Cn1cc([C@H]2C[C@H]3CSC(N)=N[C@@]3(c3ccc(F)cc3F)CO2)cn1 — Aβ40 level (item: Aβx-40; Mus musculus wild-type, cerebrospinal fluid; subcutaneous, 3 mg/kg, 9 h): 1.27 ng/mL
C=CCn1c(=O)c2cnc(Nc3ccc(N4CCN(C)CC4)cc3)nc2n1-c1ccc2c(n1)[C@@](O)(CC)CC2 — tumour growth inhibition (OVCAR-3 xenograft, NOD/SCID mouse; 100 mg/kg once daily, :2): 104%
O=C1Nc2cc3[nH]nc(-c4ccncc4)c3cc2CN1Cc1ccccc1 — progressive disease, best response (RECIST v1.1; human, relapsed or refractory advanced solid tumours; intravenous, 3.6 mg/kg): 0%
CCOCc1nc(O)c(-c2nnc(Cc3ccc(Cl)cn3)o2)c(O)c1-c1c(OC)cccc1OC — stroke volume change (renal hypertensive rat; po, 1 mg/kg twice daily, peak exposure; reference: vehicle): 35%
C[C@H](Oc1ccc(Br)cc1-c1ccon1)C(=O)O — difference from placebo (first response latency; human, tibialis anterior muscle; 200 mg, 15 Hz, single ascending dose): 0.052%
CC1=CC(=O)CC(C)(C)[C@@]1(O)/C=C/C(C)=C\C(=O)O — log2 fold change (RNA-seq, item: AT1G03870; Arabidopsis thaliana Col seedlings; dose not given; reference: DMSO): -2.34
Cc1cc(C(C)(C)C)c(O)c(C(C)(C)C)c1 — DPPH radical scavenging (DPPH; methanol; concentration not given, 60 min): 60 ± 0.38%
O=C1O[C@H]([C@@H](O)CO)C(O)=C1O — ferric reducing power (FRAP; 40 µM): 22.7%
CC(C)NCC(O)c1ccc(O)c(O)c1 (stereo not shown) — sarcomere length (ventricular cardiomyocytes, C57BL/6 mouse; dose not given, 0.476 s): 1.6 µm
CO[C@H]1CC[C@H](N2C(=O)CNc3ncc(-c4ccc(C(C)(C)O)nc4)nc32)CC1 — p4EBP1 change from baseline (flow cytometry; stimulated T cells, human, blood; 45 mg single dose, 24 h, median; reference: baseline): 3.6%
NC(=O)c1cnc2[nH]ccc2c1N[C@@H]1[C@@H]2CC3C[C@H]1C[C@@](O)(C3)C2 — percent change (CD8+ naive T cells, flow cytometry; Caucasian humans, peripheral blood; 60 mg single dose; reference: baseline): -0.63%
O=C(OC(C(F)(F)F)C(F)(F)F)N1CCN(Cc2cccc(Oc3ccccc3)c2)CC1 — k4 (PET blocking study; rhesus monkey, brain HIP; 0.3 mg/kg, compound pretreatment, added: [18F]T-401 tracer): 0.24 min⁻¹
CCCCCN1C[C@H](O)[C@@H](O)[C@H](O)[C@@H]1CO — genomic disease score (RNA sequencing, item: Hallmark interferon alpha genes; Hexb-/- mouse, hippocampus; 30 mg/kg/day; direction not given): 0.32
COc1ccc(Oc2cc(N(C)CCOc3ccc(CC4SC(=O)NC4=O)cc3)ncn2)cc1 (stereo not shown) — fasting blood glucose reduction (type 2 diabetes patients; 0.5 mg once daily, 12 weeks; reference: baseline): 36.1 mg/dL
O=C(O)CNC(=O)Cc1ccccc1 — sarcomere length (ventricular cardiomyocytes, C57BL/6 mouse; dose not given, 0.652 s): 1.72 µm
CC(=O)N[C@H]1[C@H]([C@H](O)[C@H](O)CO)O[C@](OP(=O)(O)OC[C@H]2O[C@@H](n3ccc(N)nc3=O)[C@H](O)[C@@H]2O)(C(=O)O)C[C@@H]1O — log2 fold change (binding, MIDAS equilibrium dialysis LC-MS; A2AR-BRIL thermostabilized; concentration not given; reference: no-protein control): -0.163
OC(CCN1CCCCC1)(c1ccccc1)C1CC2C=CC1C2 (stereo not shown) — EEG power, beta, Pz-O1 (resting-state EEG; healthy elderly humans; oral, 4 mg, eyes closed, LS mean): 7.3 µV²
C[C@@H](O)C=O — log2 fold change (binding, MIDAS equilibrium dialysis LC-MS; A2AR-BRIL thermostabilized; concentration not given; reference: no-protein control): 0.0911
Cc1n[nH]c2ccc(-c3cc(OC[C@@H](N)Cc4ccccc4)cnc3-c3ccoc3)cc12 — log2 fold change (kinase binding, competitor, MIB/MS competition, item: CAK1; Candida albicans cell lysate; 1 µM; reference: DMSO): 0.067
CC(C)[C@H](C(=O)Nc1ccc(C(=O)NO)cc1)c1ccccc1 — tumour volume change (volumetric MRI; human, right C1 intradural meningioma; dose not given, day 809; reference: baseline): 20.5%
Cc1cc(Nc2cc3ncccc3c(N[C@@H]3C[C@H]4CC[C@@H](C3)N4CCC#N)n2)n[nH]1 — change in endoscopic subscore (moderate-severe ulcerative colitis patients; 270 mg, day 28, Modified Mayo; reference: baseline, direction not given): -0.1
c1ccc(-c2n[nH]cc2-c2ccnc3ccccc23)nc1 — log2 fold change (kinase binding, competitor, MIB/MS competition, item: HST7; Candida albicans cell lysate; 100 nM; reference: DMSO): 1.35
Cc1noc(C)c1-c1cc(C(O)(c2ccccn2)c2ccccn2)c2nc(C3CC3)[nH]c2c1 — maximum inhibition (item: CCR2 expression; human, peripheral blood; 2 mg, day 8, 1604 study): 16%
O=C(Nc1c(Cl)cncc1Cl)c1ccc(OC(F)F)c(OCC2CC2)c1 — plasma TNF-alpha difference (mouse, human PBMC GvHD model, plasma; 1 mg/kg once daily, unit not given; reference: vehicle): 0.298
CC[C@H]1[C@@H](O)[C@@H]2[C@H](CC[C@]3(C)[C@@H]([C@H](C)CCC(=O)O)CC[C@@H]23)[C@@]2(C)CC[C@@H](O)C[C@@H]12 — plasma AST (C57BL/6J mouse, AMLN diet NASH model; dose not given, terminal): 210 ± 37 U/L
C[C@H]1C[C@H]2CSC(N)=N[C@@]2(c2nc(NC(=O)c3ccc(OC(F)F)cn3)cs2)CO1 — percent change from baseline (item: Aβ1-40; healthy adults, plasma; 160 mg single dose, 48 h post-dose; reference: placebo): -82%
N#CCC1CCN(c2nc(Nc3ccc(N4CCC(O)CC4)cc3)c3c(=O)[nH]ncc3n2)CC1 — GIF level change (Olink multiplex; human, serum; 40 mg, day 29, unit not given; reference: baseline): 1.32
Cc1cnc(N2CC3(CCOCC3)C2)c(C(=O)Nc2ccc(C(=O)N3CCc4cc(C(=O)Nc5c(C)cccc5F)sc4-c4ccccc43)cc2)c1 — inhibition of MCP3 AUC (human, RSV infection, nasal wash; dose not given, ITT-IS population; reference: placebo): 19%
N#Cc1ccn2c(-c3ccncc3)c(-c3ccc(F)cc3)nc2c1 — log2 fold change (kinase binding, competitor, MIB/MS competition, item: YCK2; Candida albicans cell lysate; 100 nM; reference: DMSO): -1.24
N#Cc1ccc2c(c1)[C@H]1CCCN(C(=O)c3ccc4[nH]cnc4c3)[C@H]1C2 — fasting plasma insulin (T2DM patients with overweight or obesity, plasma; oral, 80 mg, day 15 (360 h), multiple dosing, mean): 15.3 mU/L
CC(=O)N[C@@H](CCCN)C(=O)O — log2 fold change (binding, MIDAS equilibrium dialysis LC-MS; A2AR-BRIL thermostabilized; concentration not given; reference: no-protein control): -0.0335
Oc1ccc(Br)cc1C=NCCN1CCOCC1 — ferric reducing power (FRAP; 200 µM): 44.6%
Cc1cc([C@H]2C[C@H]3[C@@H](CF)SC(N)=N[C@@]3(c3ccc(F)cc3F)CO2)on1 — Aβ40 level (item: Aβx-40; Mus musculus wild-type, cerebrospinal fluid; subcutaneous, 30 mg/kg, 1 h): 0.79 ng/mL
COc1ccc(F)cc1C(=O)NCc1ccc(-c2nn([C@@H](C)C(F)(F)F)c(N)c2C(N)=O)cc1 — response rate (prior Richter's transformation patients; dose not given): 75%
CSCCNc1nc(SCCC(F)(F)F)nc2c1ncn2[C@@H]1O[C@H](COP(=O)(O)OP(=O)(O)C(Cl)(Cl)P(=O)(O)O)[C@@H](O)[C@H]1O — inhibition (platelet aggregation, light transmission aggregometry; human patients, platelet-rich plasma; dose not given, 3 h, added: TRAP 15 µM): 14.8 ± 19.9%
